Published values of several laboratories.
Every numbered part comes from another study and shows a few of its results, in no order. Changes are numbered by the printed parent chain.

Series 1 — technique: RNA Bind-n-Seq; molecule type: RNA; matrix: in vitro; tested at: 90 pmol; setting: 4-mer, random 30-nt RNA, single round; with: 3 µM DMDA-PatA, 2 mM ADP, 2 mM phosphate; reference: input library; reading: higher = stronger binding
Target: Eukaryotic initiation factor 4A-I (EIF4A1, Homo sapiens, UniProt P60842, residues 1-406, full length assumed)
Chain of UniProt P60842 (whole entry, looked up): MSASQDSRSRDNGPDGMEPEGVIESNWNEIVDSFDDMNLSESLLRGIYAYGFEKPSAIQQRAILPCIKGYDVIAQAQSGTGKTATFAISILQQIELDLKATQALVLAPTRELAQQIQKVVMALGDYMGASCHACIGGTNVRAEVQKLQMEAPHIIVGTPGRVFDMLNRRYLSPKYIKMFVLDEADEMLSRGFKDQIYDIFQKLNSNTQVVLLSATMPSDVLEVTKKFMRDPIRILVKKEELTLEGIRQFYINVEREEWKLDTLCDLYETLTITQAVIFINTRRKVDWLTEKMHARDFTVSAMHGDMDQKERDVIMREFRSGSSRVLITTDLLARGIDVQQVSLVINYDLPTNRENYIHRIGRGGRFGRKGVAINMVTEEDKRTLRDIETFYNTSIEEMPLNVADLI
Sequence | 4-mer enrichment
GGCA | 0.919 fold
GCGU | 1.94 fold
CUGC | 0.731 fold
GCUA | 0.62 fold
UGCA | 0.832 fold
AAGU | 1.26 fold
GCCG | 0.59 fold
GAGU | 1.82 fold
UGUA | 1.12 fold
CAUG | 0.819 fold
CUCA | 0.604 fold
CAUC | 0.635 fold
AAUG | 1.18 fold

Series 2 — technique: DHFR PCA, deep sequencing; matrix: yeast; with: (+)-ABA 17 µM; reference: wild-type fitted maximum; reading: higher = stronger binding
Target: ABI1, truncated, D143A, DHFR fusion (Arabidopsis thaliana)
Setting: methotrexate growth selection, single substitutions
Starting sequence: PYL1, truncated, DHFR fusion (Arabidopsis thaliana); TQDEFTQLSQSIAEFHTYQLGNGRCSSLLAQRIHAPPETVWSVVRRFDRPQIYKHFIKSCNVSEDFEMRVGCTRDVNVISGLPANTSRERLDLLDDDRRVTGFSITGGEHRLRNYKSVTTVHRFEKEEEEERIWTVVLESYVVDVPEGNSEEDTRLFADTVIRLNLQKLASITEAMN
Substitution | relative binding score
R98N | 81.3%
T160W | 50.8%
D96T | 9.43%
R45A | 24.5%
F66V | 65.2%
R113H | 94.4%
N61F | 86.7%
T120F | -3.19%
S104K | 8.12%
L93C | 81.9%
Y53E | 5.09%
N177I | 86.8%
S140H | -16.3%
R98S | 54.5%
L169P | -6.84%
V76L | 73.8%

Series 3 — technique: protein-binding microarray; molecule type: double-stranded DNA, one strand shown; matrix: in vitro; tested at: 2540 nM top; setting: 60-bp whole probe; with: salmon DNA 0.4 mg/ml; reference: random background probes; reading: higher = stronger binding; shared flanks, not repeated: GCCTAGCAC … GTCTTGATTCGCTTGACGCTGCTG
Target: Interferon regulatory factor 3, full length, phosphomimetic (IRF3, Homo sapiens, UniProt Q14653, residues 1-427, S386D/S396D/S398D/S402D/T404D/S405D)
Target sequence (chain): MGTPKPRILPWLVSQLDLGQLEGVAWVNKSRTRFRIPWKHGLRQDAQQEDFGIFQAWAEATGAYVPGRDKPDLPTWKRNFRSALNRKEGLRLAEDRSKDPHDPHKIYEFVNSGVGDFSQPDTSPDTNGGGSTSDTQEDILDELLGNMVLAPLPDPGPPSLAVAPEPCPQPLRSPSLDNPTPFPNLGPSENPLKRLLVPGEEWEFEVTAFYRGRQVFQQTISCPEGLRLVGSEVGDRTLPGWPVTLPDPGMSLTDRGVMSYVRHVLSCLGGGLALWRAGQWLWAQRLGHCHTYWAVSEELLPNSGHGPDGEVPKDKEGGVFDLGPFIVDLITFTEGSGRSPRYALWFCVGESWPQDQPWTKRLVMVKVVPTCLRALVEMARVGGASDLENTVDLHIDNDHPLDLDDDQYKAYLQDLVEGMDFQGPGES
Sequence | fitted relative affinity [z-score]
GACGGTCTCGACACTGGGGACGTGCTA | -0.11
TCCATTTTCTAAATGCCCTGGTGCTAG | 2.79
TCACATACGAGTTTCCAACTGTGCTAG | 2.66
TCATTTCCCTATTATATAACTGTGCTA | 4.25
TTGTAAATCTTTTTCCCTATGTGCTAG | 1.27
TCACCTTTTAAGTTCTCACTGTGCTAG | 2.94
CATTTTCTAAATTCCCTAGTGTGCTAG | 4.06
TTAGGACTGGGTTTTCGGTTAGTGCTA | 0.542
TTAGGACTGTTTTTCCTTTAGTGCTAG | 1.51
TTAGGTATCGGGTTTCGGTGAGTGCTA | 3.05
CTCACTCTAATCTCACTCTGTGTGCTA | 0.524
TTAGGACTGCTCATCCTTTAGTGCTAG | -0.183
TCACCCCTCTCATTCCAACTGTGCTAG | 1.29
TCATGAGTCCCTATCTCACTGTGCTAG | 0.421
GTAGGACTGGGACTGGGTTAGTGCTAG | -0.928
TCATGTTTGGGTCTTGTACTGTGCTAG | -0.174
TACGGTTTCCTACTGCTGACGTGCTAG | 4.99
GACGGTCTCGGACCGGGGACGTGCTAG | -0.0731
GACGGTCTCGGTTTCGTGACGTGCTAG | 2.69

Series 4 — technique: RNA Bind-n-Seq; molecule type: RNA; matrix: in vitro; tested at: 365 nM; reference: no-protein control; reading: higher = stronger binding
Target: RNA binding protein fox-1 homolog 2, RRM domain, GST-SBP tag (RBFOX2, Homo sapiens, UniProt O43251-10, residues 100-194)
Setting: natural RNA segment, single round, ends assumed
Shared flanks, not repeated: GGGAGUUCUACAGUCCGACGAUC … UGGAAUUCUCGGGUGCCAA
Sequence | RBNS enrichment (R)
AACUAAUUUUUGGCUUAAGUCAGAACAACUGGCCAAAAUUGAAGUCAUAUUUGAGGGGGGAAAUGGCAUACGCAAUAUUAUAUUAUAUUGGAUAUUUAUGUUCACACAGG | 0.42
UUUACAUAAGUGUGUGGGUGUCUUGUGGGGGAAGGUUCUGUGCUCUUGUUUUUGUUAAUUUAUUGGAACUCUGUAUAAGGCCAUAUUUUAGUGGCUGUCUGAAACCCCAU | 1.64
UUAGAUGUUUAUAUACCUUUUGAAGAGACCCAGUAGCCCAUAGCACAAAUCUUGUGGAAAUCCGAUAUGUUUUAAUGUGGCUACCUAGGUUUAAGGUUCACGUUAGUCCC | 0.527
CGCCUGGAGCGCAUCGAGUCCACUGAAAUCUGAUUCUCUACGUGCACAACCUUCUGACACGUGCCCUGUCUGAAGGUCGGAGUCACCAAUGUCCCUUCCAUUCAUCUCCC | 0.514
GGCUUCGUGUGCCUGUUGGACCAUUAGUUCUUUUAACUGUAUAUGCAAUAACAAGGUUUUAAAAGAUAAUAAUAAAGAGGAAACACGACUAUUGGACAAAGUAUUUAUGU | 1.03
AAAUACAAAAAUUAGCCAAGUGUGAUGGCACAUACCUGUAAUCCCAGCUACUUGGAAUUGGAAAUCGCCUGAACCCAGGAGGCGGAGGUUGCAGGGAGGGAGACUGCACC | 0.766
UGAAAUCUUGCAUCUUCAAGAAAAGAUUAAAAUAGUAAAAGUAUCUUAAAUUUCCUGAUAUUUAUGUACAUAUAGUAAGAUAACUGAUAAGUCUUAGAUGUUUGAGUGAA | 0.466
GAUUGUAUUUCCAAUUUCUUGUUCAUGUAAGAUUUCAAUAAAACUCAAAAAUCUAUUCAAAACAUCACCUAUUUCAAAUUCAAUUGUGUCUAAAACAUUACUUUAUUCGU | 0.448

For quick reference, copied from above (series 3):
Sequence | fitted relative affinity [z-score]
CATTTTCTAAATTCCCTAGTGTGCTAG | 4.06
TCACCCCTCTCATTCCAACTGTGCTAG | 1.29
TCACATACGAGTTTCCAACTGTGCTAG | 2.66
TCATGTTTGGGTCTTGTACTGTGCTAG | -0.174
TCATGAGTCCCTATCTCACTGTGCTAG | 0.421
